# Literature values as cited in several papers.
# Protocols differ between the studies behind these lines. ± gives the spread as reported.
Compound,target or system,test,test system,setting,scale,measurement,value
COc1ccccc1Oc1cccc(CN2CCC(NC(=O)C3CC(=O)Nc4ccccc43)CC2)c1 (stereo not shown),human CCR8 G206W mutant (TM5),"IP accumulation, agonist",,,,EC50,0.029 µM
CC(C)(C)n1nc(Cc2cccc3ccccc23)c2c(N)ncnc21,CSNK1D,"kinase activity, inhibitor",,0.5 µM,,inhibition,46%
COC(=O)C1=C(C)NC(C)=C(C(=O)OC)C1c1c(-c2ccccc2OC(F)(F)F)nc2sccn12,,,guinea pig left atrium,5x1.000e-06 M,,decrease in contractile force,67 ± 2%
CNC(C)C1CCC(N)C(OC2C(N)CC(N)C(OC3OCC(C)(O)C(NC)C3O)C2O)O1 (stereo not shown),Enterobacter cloacae,,clinical isolate RKI-No_766/15,,,MIC,1 mg/L
COc1ccccc1Oc1cccc(CN2CCC3(CC2)C(=O)NCN3CCc2ccccc2)c1,human CCR8 S262A mutant (TM6),"IP accumulation, agonist",,,,EC50,0.021 µM
Cc1[nH]c(C)c(-c2ccc(-c3cccc(C(F)(F)F)c3)nc2)c(=O)c1Br,Plasmodium falciparum,whole cell extended time,3D7,72 h,,IC50,0.14 µM
C[C@H]1COCCN1c1nc(-c2cnc(N)cc2C(F)F)nc(N2CCOCC2)n1,AN3 CA,,,,,GI50,0.126 µM
Cc1[nH]c(C)c(-c2ccc(C(=O)c3ccc(Cl)cc3)cc2)c(=O)c1Br,Plasmodium falciparum,whole cell extended time,3D7,72 h,,IC50,0.81 µM
COC(=O)C1=C(C)NC(C)=C(C(=O)OC)C1c1c(Cl)nc2sc(Cl)cn12,,negative inotropic effect,"guinea pig, isolated left atrium",,,EC50,0.18 µM
COc1ccccc1Oc1cccc(CN2CCC(NC(=O)C(CCN3CCCC3)c3ccccc3)CC2)c1 (stereo not shown),human CCR8 W251Q mutant (TM6),"IP accumulation, agonist",,,,EC50,0.01 µM
Cc1[nH]c(C)c(-c2ccc(OCc3cc(F)cc(F)c3)nc2)c(=O)c1Cl,Plasmodium falciparum,whole cell extended time,3D7,72 h,,IC50,0.09 µM
COC(=O)C1=C(C)NC(C)=C(C(=O)OC)C1c1c(C)nc2sc(Cl)cn12,,,guinea pig left atrium,"50 µM, paced at 1 Hz",relative to: control,decrease in developed tension,63 ± 4.7%
COc1ccccc1Oc1cccc(CN2CCC(O)(c3ccccc3C(=O)O)CC2)c1,human CCR8 S110H mutant (TM3),"IP accumulation, agonist",,,,EC50,> 10 µM
Cc1c(C#N)cccc1[C@@H](C)Nc1nnc(C)c2cnc(N3CCOCC3)cc12,HT115,"ERK phosphorylation, In-Cell Western, refers to: phospho-ERK",,,,IC50,0.01 ± 0.0028 µM
COC(=O)C1=C(C)NC(C)=C(C(=O)OC)C1c1c(-c2cccc(C(F)(F)F)c2)nc2sccn12,,decrease in atrial rate,guinea pig right atrium,,,EC50,3.76 µM
CCNS(=O)(=O)c1ccc(OC)cc1C1(O)CCN(Cc2cccc(Oc3ccccc3OC)c2)CC1,human CCR8 W251Q mutant (TM6),"IP accumulation, agonist",,,,EC50,0.08 µM
CC1(C)S[C@@H]2[C@H](NC(=O)[C@H](N)c3ccccc3)C(=O)N2[C@H]1C(=O)O,Acinetobacter baumannii,,clinical isolate RKI-No_3/15,,,MIC,> 16 mg/L
CCc1cn2c(C3C(C(=O)OC)=C(C)NC(C)=C3C(=O)OC)c(-c3cc(OC)ccc3OC)nc2s1,,,guinea pig left atrium,"50 µM, paced at 1 Hz",relative to: control,decrease in developed tension,72 ± 3.6%
CC(C)(C)NCC(O)c1ccc(O)c(CO)c1 (stereo not shown),,,COPD patients,"4 mg single, 6 h, day 1","relative to: baseline, placebo-corrected",trough FEV1 change,94 mL
Nc1cc(C(F)(F)F)c(-c2nc(N3CCOCC3)nc(N3CCOCC3)n2)cn1,BT-549,,,,,GI50,1.32 µM
COC(=O)C1=C(C)NC(C)=C(C(=O)OC)C1c1c(-c2cccc(OC(F)(F)F)c2)nc2sccn12,,,guinea pig right atrium,"5 µM, spontaneously beating",relative to: control,decrease in atrial rate,69 ± 4.3%
N#Cc1ccc(CN2CCC(Oc3ccc(NC(=O)c4cccs4)cc3Cl)CC2)cc1,Plasmodium falciparum,whole cell extended time,3D7,72 h,,IC50,0.58 µM
C[C@]12CC[C@@H]3c4ccc(O)cc4C[C@@H](CCCCCCCCC[S+]([O-])CCCC(F)(F)C(F)(F)F)[C@H]3[C@@H]1CC[C@@H]2O (stereo partly shown),MCF7,,,"concentration not given, with: insulin stimulation",,cell proliferation,inhibited
Cc1nc(C)c(-c2ccc(C(=O)c3ccccc3)cc2)c(O)c1Br,Plasmodium falciparum,whole cell extended time,3D7,72 h,,IC50,0.78 µM
Nc1cccc2c1C(=O)N(C1CCC(=O)NC1=O)C2=O (stereo not shown),,,relapsed refractory multiple myeloma patients,"dose not given, phase II, sample A patients, with: low-dose dexamethasone",,median progression-free survival,4.2 months
CC(C)CC1c2[nH]c3ccccc3c(=O)c2CN1C(=O)OC(C)(C)C (stereo not shown),Plasmodium falciparum,whole cell extended time,3D7,72 h,,IC50,0.22 µM
CCN(c1cc(-c2ccc(CN3CCOCC3)cc2)cc(C(=O)NCc2c(C)cc(C)[nH]c2=O)c1C)C1CCOCC1,,,"relapsed/refractory DLBCL, EZH2 wild-type",dose not given,,overall response rate,15%
Clc1ccc2c(NN=Cc3cccs3)ccnc2c1,Plasmodium falciparum,whole cell extended time,3D7,72 h,,IC50,0.92 µM
c1cc(-c2cnn3cc(-c4ccc(OCCN5CCCCC5)cc4)cnc23)ccn1,CSNK1E,"kinase activity, inhibitor",,0.5 µM,,inhibition,48%
Cc1nc2ccc(-c3ccc(OC(F)(F)F)cc3)cc2c(O)c1C#N,Plasmodium falciparum,whole cell extended time,3D7,72 h,,IC50,0.02 µM
O=C(Nc1nc2ccccc2[nH]1)c1ccccc1,SMN2 isoform d,,,PubChem AID 1458,,activity,4 µM
